Experimental data pooled from the literature.
Values joined by “and” are separate records of one study, mostly repeats; a detail may differ. ± gives the spread as reported.
MAPK8: Mitogen-activated protein kinase 8 (MAPK8, Homo sapiens, UniProt P45983)
STING1 H232R: Stimulator of interferon genes protein (STING1, Homo sapiens, UniProt Q86WV6, H232R)
Dipeptidyl peptidase 8: Dipeptidyl peptidase 8 (Homo sapiens, UniProt Q6V1X1)
BRD3 BD2: Bromodomain-containing protein 3, BD2 (BRD3, Homo sapiens, UniProt Q15059)
Ecdysone receptor: Ecdysone receptor (Aedes albopictus, UniProt Q9U3Y4)

CN(C)c1ccc(-n2cc(COC(=O)[C@@]3(C)C=C(C(=O)OC(C)(C)C)C(=O)CC3)nn2)cc1 — fraction bound (MAPK8; D-peptide binding, inhibitor, FP peptide displacement; 50 µM; lower is stronger displacement): 0.526
Cc1ccc(C(=O)Nc2ccc(CN3CCN(C)CC3)c(C(F)(F)F)c2)cc1C#Cc1cnc2cccnn12 — upper asymptote (WEE2 (Homo sapiens, UniProt P0C1S8); target engagement, NanoBRET; human cells): 208
CC(C)C[C@@H]1NC(=O)[C@H](Cc2ccccc2)NC(=O)CSC[C@@H](C(=O)NCC(N)=O)NC(=O)[C@H](C(C)C)NC(=O)[C@H](Cc2ccccc2)NC(=O)[C@H](Cc2ccc(O)cc2)NC(=O)[C@H](C(C)C)NC(=O)[C@H](CC(=O)O)NC(=O)[C@H](Cc2ccccc2)NC(=O)[C@H](CCCNC(=N)N)NC(=O)[C@H](Cc2ccccc2)N(C)C(=O)[C@H](C)NC(=O)[C@H](Cc2ccccc2)NC(=O)[C@H](C(C)C)NC1=O — ΔTm (STING1 H232R; thermal stability, DSF; 200 µM): -0.16 °C
CCCCCCCC/C=C\CCCCCCCC(=O)OCC(O)COP(=O)(O)O (stereo not drawn) — fold change (LPAR1 (Homo sapiens, UniProt Q92633); G-protein dissociation, agonist, NanoBiT; HEK-293T; 1 nM, wild-type receptor; reference: baseline luminescence): 0.972 and 0.964 and 0.963 and 0.979 and 0.935 and 0.944
CCC1(C)C(=O)N(c2cccc(CN3CCN(Cc4ccc(Br)cc4)CC3)c2)C1=O — activity vs control (Dipeptidyl peptidase 8; enzyme activity, inhibitor; 5 µM): 62%
CC(C)Oc1cc(Cl)ccc1CNc1cc(-c2ccccc2)nc2ncnn12 — cAMP luminescence (GPR3 (Homo sapiens, UniProt P46089); cAMP reporter; human cells; 100 µM; higher is more cAMP): 28700 a.u. and 4130 a.u. and 2440 a.u. and 686 a.u. and 3780 a.u. and 1130 a.u.
CN1CCCN(c2cnc3c(cc(C(=O)NCc4ccc(Cl)cc4)c(=O)n3CC(=O)N3CC(C)(F)C3)n2)C1=O — Hill slope (DNA polymerase catalytic subunit (Human cytomegalovirus, UniProt P08546); enzyme activity, inhibitor): 0.66
COc1ccccc1-c1ccncc1C(=O)Nc1nnc(OCc2ccc(Cl)cc2)s1 — remaining activity (Bifunctional 3'-5' exonuclease/ATP-dependent helicase WRN, residues 500-946 (WRN, Homo sapiens, UniProt Q14191); ATPase activity, ADP-Glo; 0.015 µM; reference: 0 µM cpd): 94%
CCC1(CC)C(=O)N(c2cccc(C)c2)C1=O — activity vs control (Dipeptidyl peptidase 8; enzyme activity, inhibitor; 5 µM): > 90%
C=CC(=O)N1CCCC(n2c(=O)c3ncccc3n(Cc3ccc(Oc4ccccc4)cc3)c2=O)C1 (stereo not drawn) — melting temperature shift (NudC domain-containing protein 2 (NUDCD2, Homo sapiens, UniProt Q8WVJ2); thermal proteome profiling, measured: NUDCD2; unit not given; reference: vehicle): -7.12
COc1cc(C2C(NC(=O)c3ccc(NC(=O)OC(C)(C)C)cc3)(C(=O)O)C(c3ccc(OC(=O)c4cccs4)c(OC)c3)C2(NC(=O)c2ccc(NC(=O)OC(C)(C)C)cc2)C(=O)O)ccc1OC(=O)c1cccs1 (stereo not drawn) — Emax (GLP1R (Homo sapiens, UniProt P43220, C226A); cAMP accumulation, agonist; receptor mutant; reference: wild type): 3.73 ± 2.46%
N=C(N)NCCS(=O)(=O)O — fraction bound (SLC6A6 (Homo sapiens, UniProt P31641, Y138A); binding, microscale thermophoresis; 33 nM, fitted curve; higher = more binding): 0
O=C(O)c1ccc(OP(=O)(O)O)c(CN2CCC(=C3c4ccc(Cl)cc4CCc4cccnc43)CC2)c1 — drug formation rate (Alkaline phosphatase, placental type (Homo sapiens, UniProt P05187); substrate; 100 µM, pH 7.6, 37 °C): 1.53 pmol/min
CC(C)[C@@H]1NC(=O)[C@H](Cc2ccccc2)NC(=O)CSC[C@@H](C(N)=O)NC(=O)[C@H](CCC(=O)O)NC(=O)[C@H](CO)NC(=O)[C@H](Cc2c[nH]c3cccc(Cl)c23)NC(=O)[C@H](C2CCCCC2)NC(=O)[C@H](C(C)C)NC(=O)[C@H](Cc2ccc(O)cc2)NC(=O)[C@H](CC(=O)O)NC(=O)[C@H](Cc2c[nH]c3ccccc23)NC(=O)[C@H](Cc2ccc(N)nc2)NC(=O)[C@H](Cc2c[nH]c3ccc(Cl)cc23)NC(=O)[C@H](CCC(=O)O)NC1=O — remaining activity (Interleukin-1 receptor-like 2 (IL1RL2, Homo sapiens, UniProt Q9HB29); reporter gene (SEAP), inhibitor, HEK-Blue IL-36R reporter; HEK-Blue IL-36R cells; 33.33 µM, 6 h, added: IL-36γ 10 ng/mL): 65.4%
O=C(CCCCCCS)Nc1ccccc1 — binding stoichiometry (HDAC8 (Homo sapiens, UniProt Q9BY41); ITC; Tris buffer; concentration not given, pH 7.5): 1
CCn1cc(-c2cccc(C(F)(F)F)c2)c2sc(C(=N)NC3CCS(=O)(=O)CC3)cc2c1=O — ΔTm (BRD3 BD2): 2.8 °C
CSc1cc(C)[nH]c(=O)c1CNC(=O)c1c(C)n(C(C)C2CCC(NC3(C)COC3)CC2)c2ccccc12 (stereo not drawn) — residence time (EZH2 (Homo sapiens, UniProt Q15910); binding, TR-FRET; added: H3K27me3 activating peptide): 26400 min
CCCCN(CCCC)CC(=O)N1CCN(CC(OCc2ccc3ccccc3c2)c2ccc(Cl)cc2Cl)CC1 (stereo not drawn) — activity vs control (ULK1 (Homo sapiens, UniProt O75385); enzyme activity, inhibitor, ADP detection; 0.1 µM): 115%
CC(C)C[C@@H]1NC(=O)[C@H](Cc2ccccc2)NC(=O)[C@H](CO)NC(=O)[C@H](Cc2ccccc2)NC(=O)CSC[C@@H](C(=O)N(C)[C@@H](Cc2ccccc2)C(N)=O)NC(=O)[C@H](Cc2c[nH]c3ccccc23)NC(=O)[C@H](Cc2c[nH]cn2)NC(=O)[C@H](Cc2ccc(O)cc2)NC1=O — ΔTm (STING1 H232R; thermal stability, DSF; 100 µM): 7.92 °C
COC(=O)[C@@]1(C)C=C(C(=O)OC(C)(C)C)C(=O)CC1 — fraction bound (MAPK8; D-peptide binding, inhibitor, FP peptide displacement; 15.62 µM; lower is stronger displacement): 0.861
CC[C@H](C)[C@@H](C(=O)N[C@@H](CC(C)C)C(=O)N[C@@H](CO)C(=O)N[C@@H](CO)C(=O)N[C@H](C(=O)N[C@@H](CC(N)=O)C(=O)N[C@H](C(=O)NCC(=O)N[C@@H](CO)C(=O)N[C@@H](CC(N)=O)C(=O)N[C@H](C(=O)N1C[C@H](O)C[C@H]1C(N)=O)[C@@H](C)O)C(C)C)[C@@H](C)O)N(C)C(=O)[C@H](C)NC(=O)CN(C)C(=O)[C@H](Cc1ccccc1)NC(=O)[C@H](CC(N)=O)NC(=O)[C@H](CC(N)=O)NC(=O)[C@H](CO)NC(=O)[C@H](CO)NC(=O)[C@H](CCCNC(=N)N)NC(=O)[C@H](Cc1c[nH]cn1)NC(=O)[C@H](CC(C)C)NC(=O)[C@H](Cc1ccccc1)NC(=O)[C@H](CCC(=O)O)NC(=O)[C@H](C)NC(=O)[C@H](CC(C)C)NC(=O)[C@H](CCCNC(=N)N)NC(=O)[C@H](CCC(N)=O)NC(=O)[C@@H](NC(=O)[C@H](C)NC(=O)[C@@H]1CSSC[C@H](NC(=O)[C@H](CCCNC(=N)N)NC(=O)CC[C@H](NC(=O)CCCCCCCCCCCCCCCCCCC(=O)O)C(=O)O)C(=O)N[C@@H](CC(N)=O)C(=O)N[C@@H]([C@@H](C)O)C(=O)N[C@@H](C)C(=O)N[C@@H]([C@@H](C)O)C(=O)N1)[C@@H](C)O — potency increase (Amylin receptor AMY3; CALCR/RAMP3 (Homo sapiens, UniProt O60896+P30988); cAMP accumulation, agonist; COS-7; reference: over native Tyr37 analogue): 3 to 4 fold
CCCCc1ccc(C(=O)N2c3ccc(F)cc3[C@@H](Nc3ccccc3)C[C@H]2C)cc1 — pIC50 Z-score (Ecdysone receptor; ligand binding, inhibitor; intact cells; added: [3H]ponasterone A; direction not given): -1.12
O=C1C[C@H](c2nc(-c3ccc(F)c4cn[nH]c34)no2)CCCN1c1ccc(F)cc1 (racemic) — cAMP inhibition (CNR2 (Homo sapiens, UniProt P34972); agonist, GloSensor cAMP; CHO expressing CB2; 10 µM): 76% and 71.4% and 66.9%
COC(=O)[C@]1(Cc2ccccc2)C=C(C(=O)OC(C)(C)C)C(=O)CC1 — fraction bound (MAPK8; D-peptide binding, inhibitor, FP peptide displacement; 125 µM; lower is stronger displacement): -0.036
COc1cc(Nc2nccc(-c3cnn4nc(OC)ccc34)n2)cc(C(F)(F)F)c1 — remaining binding (Tyrosine-protein kinase ABL1, non-phosphorylated (ABL1, Homo sapiens, UniProt P00519, Q252H); binding; 1 µM): 93%
CC[C@H](C)[C@H](NC(=O)[C@@H](NC(=O)[C@@H](NC(=O)[C@@H](NC(=O)[C@H](CCCNC(=N)N)NC(=O)[C@H](CCC(=O)O)NC(=O)[C@H](CCC(=O)O)NC(=O)[C@H](C)NC(=O)[C@H](CCC(=O)O)NC(=O)CNC(=O)[C@H](C)NC(=O)CN)C(C)C)C(C)C)C(C)C)C(=O)N[C@@H](CC(=O)O)C(=O)N[C@@H](CC(=O)O)C(=O)N[C@@H](CC(=O)O)C(=O)N[C@@H](CCC(=O)O)C(=O)N[C@@H](CC(=O)O)C(=O)N[C@@H](CC(=O)O)C(=O)N[C@@H](CC(=O)O)C(=O)N[C@@H](C)C(=O)N[C@@H](CCC(=O)O)C(=O)N[C@@H](CC(N)=O)C(=O)N[C@@H](CO)C(=O)N[C@@H](CO)C(=O)N[C@@H](CO)C(=O)N[C@@H](CCCNC(=N)N)C(=O)N[C@@H](Cc1ccc(O)cc1)C(=O)O — -TΔS (Small ubiquitin-related modifier 2, N-terminally truncated (Homo sapiens, UniProt P61956, C48A); binding, ITC; Tris buffer; pH 7.4, ΔN-SUMO2): -9.77 ± 0.22 kcal/mol
O=C(O)[C@H]1O[C@@H](O[C@H]2[C@H](O)[C@H](O)[C@H](O[C@H]3[C@H](O)[C@H](O)[C@H](O)O[C@@H]3C(=O)O)O[C@H]2C(=O)O)[C@@H](O)[C@@H](O)[C@@H]1O[C@@H]1O[C@@H](C(=O)O)[C@@H](O)[C@H](O)[C@@H]1O — binding stoichiometry (Beta-lactoglobulin (LGB, Bos taurus, UniProt P02754, A134V/G80D); isothermal titration calorimetry; concentration not given, pH 4.00, 37 °C, 50 mM KH2PO4; ligand per protein): 4.1
CCCCCC(O)/C=C/C=O (stereo not drawn) — isoTOP-ABPP competition ratio (Elongation factor 2 (EEF2, Homo sapiens, UniProt P13639); competitive isoTOP-ABPP; proteome, soluble, MDA-MB-231; 100 µM, added: iodoacetamide probe; reference: DMSO over compound-treated, higher = stronger cysteine blockade): 8.8
CN(C)c1ccc(C#CCOC(=O)[C@]2(C)C=C(C(=O)OC(C)(C)C)C(=O)CC2)cc1 — fraction bound (MAPK8; D-peptide binding, inhibitor, FP peptide displacement; 31.25 µM; lower is stronger displacement): 0.247
CC(=O)N1c2ccc(-c3ccc(CNC(=O)c4cn5cc(-c6cnc(N)nc6)nc(N6CCOCC6)c5n4)cc3)cc2CC[C@@H]1C — remaining binding (Bromodomain testis-specific protein, BD2 (BRDT, Homo sapiens, UniProt Q58F21); binding, competition with immobilised ligand; 10 µM): 0.7%
CCCCCCCCCCCCC/C=C/C=O — isoTOP-ABPP competition ratio (REEP5 (Homo sapiens, UniProt Q00765); competitive isoTOP-ABPP; Ramos soluble proteome; 100 µM, 60 min, added: iodoacetamide probe; reference: DMSO over compound-treated, higher = stronger cysteine blockade): 1.6
O=C1c2sc(-c3ccc(N4CCC(F)C4)nc3F)nc2CCN1c1cccnc1 (stereo not drawn) — specific binding (TAR DNA-binding protein 43, aggregated (TARDBP, Homo sapiens, UniProt Q13148); radioligand binding; human, FTLD-TDP type B sarkosyl-insoluble extract; 142.86 nM): 1.99 nM and 3.49 nM
Cn1cc(-c2cc(N3CCCCS3(=O)=O)ccc2N[C@H]2CC[C@H](C)CC2)c2cc[nH]c2c1=O (stereo in doubt) — remaining binding (BRD3 BD2; binding, competition with immobilised ligand; 1 µM): 0.5%
Cc1ccc(C[C@H](NC(=O)CN2CCCc3cc4cc(C(=O)NCCNC(=O)CCCC[C@@H]5SC[C@@H]6NC(=O)N[C@@H]65)c(=O)oc4cc32)C(=O)NC/C=C/S(=O)(=O)c2ccccc2)cc1 — kinact/Ki (Rhodesain (rhodesain, Trypanosoma brucei rhodesiense, UniProt Q95PM0); inhibitor; pH 5.5, 37 °C, added: Z-Phe-Arg-AMC): 37000 M⁻¹ s⁻¹
C[C@@H]1C[C@H](Nc2ccccc2)c2cc(F)ccc2N1C(=O)c1ccc([N+](=O)[O-])cc1 — pIC50 Z-score (Ecdysone receptor; ligand binding, inhibitor; intact cells; added: [3H]ponasterone A; direction not given): -0.07
CCOC(=O)C(CC)(CCCSCCOCCNC(=O)OC(C)(C)C)NC(=O)c1ccc(C2CC2)c(Cc2ccc(F)cc2)n1 (stereo not drawn) — Emax (Cnr2 (Mus musculus, UniProt P47936); cAMP, agonist): 90%
